Published values collected from several papers.
Protocols differ between the studies behind these lines. ± marks the error that the study gave.

| SMILES | assay | system | conditions | Cmax |
| --- | --- | --- | --- | --- |
| COC(=O)/C=C/C(=O)c1ccc(OC)cc1 | – | Sprague-Dawley rat, both sexes, plasma | oral, 200 mg/kg | 457 ± 110 ng/mL |
| C=C(c1ncc(C(=O)O)cn1)c1cc2c(cc1C)C(C)(C)CCC2(C)C | – | rat Sprague-Dawley male, plasma | oral, 100 mg/kg, sesame oil | 44000 ng/mL |
| Cc1noc(C)c1Cn1cc(N2C(=O)CN(Cc3cccc(OS(=O)(=O)O)c3)C2=O)cn1 | – | rat Sprague-Dawley male, plasma | oral, 10 mg/kg of parent drug | 2600 ng/mL |
| Cc1ncc2c(n1)CN(C(=O)Nc1nc(-c3cccs3)ccc1N)C2 | – | male Sprague-Dawley rats | oral, 60 mg/kg daily, day 14 | 3760 ± 1160 ng/mL |
| NC(=O)/C=C/c1cccc(S(=O)(=O)Nc2ccccc2)c1 | – | patients with moderate liver dysfunction, plasma | intravenous, 400 mg/m^2 belinostat, single 30 min infusion, cycle 1 day -7, mean | 1640 ng/mL |
| Cc1cc2c(NC(=O)N[C@@H]3CC(C)(C)Oc4cc(C(F)(F)F)ccc43)cccc2cn1 | – | Sprague-Dawley rat, male, plasma | oral, 100 µmol/kg, 1 h, telemetry study | 3100 ng/mL |
| Cc1cc(CNCCCCCC(=O)NO)ccc1OCc1cccc(-c2ccccc2)c1C | – | Sprague-Dawley rat, plasma | intravenous, 10 mg/kg | 3600 ng/mL |
| Cc1ccc(/N=N/c2c(O)ccc3ccccc23)c(C)c1 | – | Sprague-Dawley rats both sexes, whole blood | oral, 50 mg/kg | 696 ng/mL |
| CC(=O)[CH](C(C)=O)[Pt-2]1([S+](C)C)[O]C(C)=CC(C)=[O+]1 (stereo not drawn) | item: platinum | rat, whole blood | intravenous, dose not given | 68800 ng/mL |
| CN1CC[C@@H](NC(=O)Nc2ccc(C#N)cc2)C[C@@H]1c1nc2ccccc2[nH]1 | item: total compound | moderate hepatic impairment, plasma | oral, 100 mg single dose, fasted, arithmetic mean | 900 ng/mL |
| N=C(N)NCCC[C@H](NC(=O)[C@@H]1CCCN1C(=O)[C@H](Cc1ccccc1)NC(=O)[C@@H]1CCCN1C(=O)[C@H](Cc1c[nH]cn1)NC(=O)[C@@H](N)Cc1ccccc1)C(=O)O | – | Sprague-Dawley rat male, plasma | intravenous, 10 mg/kg | 95.8 ± 14.5 ng/mL |
| COc1cc(C=CC(=O)OCC2OC(OC3C(c4c(OC)cc5oc(-c6ccc(O)cc6)cc(=O)c5c4O)OC(CO)C(O)C3O)C(O)C(O)C2O)ccc1O (stereo not drawn) | – | male Sprague-Dawley rat, PCPA-induced insomnia, plasma | oral, 6.8 g/kg | 12.7 ± 4.03 ng/mL |
| C=C(c1cc(F)c(C(=O)O)c(F)c1)c1cc2c(cc1C)C(C)(C)CCC2(C)C | – | rat Sprague-Dawley male, plasma | oral, 100 mg/kg, sesame oil | 2410 ng/mL |
| CNc1cc(C(=O)Nc2ccc(Cl)cc2)ccc1OC | – | male Sprague-Dawley rats, serum | oral, 20 mg/kg | 2690 ± 574 ng/mL |
| Cn1cc(C(N)=O)c(NC2C3CC4CC2CC(OS(=O)(=O)O)(C4)C3)c2ccnc1-2 (stereo not drawn) | – | Japanese adults, moderate hepatic impairment, plasma | oral, 150 mg single dose | 110 ng/mL |
| CCCCC/C=C/C=C/C(=O)NCC(C)C | – | rat, sham-operated, plasma | oral, 50 mg/kg | 227 ± 145 ng/mL |
| N[C@H](COc1ccccc1C(F)(F)F)c1ccccc1 | – | male Sprague-Dawley rat, serum | intravenous, 5 mg/kg | 219 ± 15 ng/mL |
| Oc1ccc2ccccc2c1/N=N/c1ccccc1 | – | Sprague-Dawley rats both sexes, whole blood | oral, 50 mg/kg | 631 ng/mL |
| COc1ccc(N2CCOCC2)c2sc(NC(=O)c3ccnc(CN4CCCC4)c3)nc12 | – | Wistar rat, plasma (total) | oral, 45 mg/kg/day, 14 days | 26400 ng/mL |
| CC/C=C\C/C=C\C/C=C\C/C=C\C/C=C\CCCCOC(CC)C(=O)O (stereo not drawn) | – | Wistar rat, male, mesenteric lymph | oral, 100 mg/kg | 8400 ng/mL |
| Cc1noc(C)c1Cn1cc(N2C(=O)CN(Cc3cccc(O[C@@H]4O[C@H](C(=O)O)[C@@H](O)[C@H](O)[C@H]4O)c3)C2=O)cn1 | – | rat Sprague-Dawley male, plasma | oral, 10 mg/kg of parent drug | 2540 ng/mL |
| CC(C)C[C@H](NC(=O)[C@H](CCCCN)NC(=O)CNC(=O)[C@H](CC(C)C)NC(=O)[C@@H](NC(=O)[C@@H]1CSSC[C@H](N)C(=O)N[C@@H](CO)C(=O)N[C@@H](CC(N)=O)C(=O)N[C@@H](CC(C)C)C(=O)N[C@@H](CO)C(=O)N[C@@H]([C@@H](C)O)C(=O)N1)C(C)C)C(=O)N[C@@H](CO)C(=O)N[C@@H](CCC(N)=O)C(=O)N[C@@H](CCC(=O)O)C(=O)N[C@@H](CC(C)C)C(=O)N[C@@H](Cc1c[nH]cn1)C(=O)N[C@@H](CCCCN)C(=O)N[C@@H](CC(C)C)C(=O)N[C@@H](CCC(N)=O)C(=O)N[C@H](C(=O)N[C@@H](Cc1ccc(O)cc1)C(=O)N1CCC[C@H]1C(=O)N[C@@H](CCCNC(=N)N)C(=O)N[C@H](C(=O)N[C@@H](CC(N)=O)C(=O)N[C@H](C(=O)NCC(=O)N[C@@H](CO)C(=O)NCC(=O)N[C@H](C(=O)N1CCC[C@H]1C(N)=O)[C@@H](C)O)[C@@H](C)O)[C@@H](C)O)[C@@H](C)O | ELISA | hairless male Sprague-Dawley rat, serum | intravenous, 3 µg | 10.5 ± 7 ng/mL |
| O=C(O)/C=C/c1cccc(S(=O)(=O)Nc2ccccc2)c1 | – | patients with moderate liver dysfunction, plasma | intravenous, 400 mg/m^2 belinostat, single 30 min infusion, cycle 1 day -7, mean | 1830 ng/mL |
| CN1CCN(c2ccc(Nc3ncc(Cl)c(Nc4ccccc4P(C)(C)=O)n3)cc2Br)CC1 | – | male Sprague-Dawley rat, plasma | oral, 25 mg/kg | 210 ng/mL |
| CCNC(=O)[C@@H]1CCCN1C(=O)[C@H](CCCNC(=N)N)NC(=O)[C@H](CC(C)C)NC(=O)[C@@H](CC(C)C)NC(=O)[C@H](Cc1ccc(O)cc1)NC(=O)[C@H](CO)NC(=O)[C@H](Cc1c[nH]c2ccccc12)NC(=O)[C@H](Cc1c[nH]cn1)NC(=O)[C@@H]1CCC(=O)N1 | – | Sprague-Dawley rat, male, plasma | subcutaneous, 12.5 mg/kg | 2780 ng/mL |
| NC(=O)c1cnc2[nH]ccc2c1NC1C2CC3CC1CC(OS(=O)(=O)O)(C3)C2 (stereo not drawn) | – | Japanese adults, moderate hepatic impairment, plasma | oral, 150 mg single dose | 485 ng/mL |
| CCCCOc1nc(N)c2[nH]c(=O)n(CCCN(CCCN3CCOCC3)Cc3cccc(CC(=O)OC)c3)c2n1 | – | rat, Brown Norway, plasma | intratracheal, 0.3 mg/kg, 5 min | 2 nM |

Excerpt of the above:
| SMILES | assay | system | conditions | Cmax |
| --- | --- | --- | --- | --- |
| CC(C)C[C@H](NC(=O)[C@H](CCCCN)NC(=O)CNC(=O)[C@H](CC(C)C)NC(=O)[C@@H](NC(=O)[C@@H]1CSSC[C@H](N)C(=O)N[C@@H](CO)C(=O)N[C@@H](CC(N)=O)C(=O)N[C@@H](CC(C)C)C(=O)N[C@@H](CO)C(=O)N[C@@H]([C@@H](C)O)C(=O)N1)C(C)C)C(=O)N[C@@H](CO)C(=O)N[C@@H](CCC(N)=O)C(=O)N[C@@H](CCC(=O)O)C(=O)N[C@@H](CC(C)C)C(=O)N[C@@H](Cc1c[nH]cn1)C(=O)N[C@@H](CCCCN)C(=O)N[C@@H](CC(C)C)C(=O)N[C@@H](CCC(N)=O)C(=O)N[C@H](C(=O)N[C@@H](Cc1ccc(O)cc1)C(=O)N1CCC[C@H]1C(=O)N[C@@H](CCCNC(=N)N)C(=O)N[C@H](C(=O)N[C@@H](CC(N)=O)C(=O)N[C@H](C(=O)NCC(=O)N[C@@H](CO)C(=O)NCC(=O)N[C@H](C(=O)N1CCC[C@H]1C(N)=O)[C@@H](C)O)[C@@H](C)O)[C@@H](C)O)[C@@H](C)O | ELISA | hairless male Sprague-Dawley rat, serum | intravenous, 3 µg | 10.5 ± 7 ng/mL |
| CN1CC[C@@H](NC(=O)Nc2ccc(C#N)cc2)C[C@@H]1c1nc2ccccc2[nH]1 | item: total compound | moderate hepatic impairment, plasma | oral, 100 mg single dose, fasted, arithmetic mean | 900 ng/mL |
| Cc1ncc2c(n1)CN(C(=O)Nc1nc(-c3cccs3)ccc1N)C2 | – | male Sprague-Dawley rats | oral, 60 mg/kg daily, day 14 | 3760 ± 1160 ng/mL |
| Cc1noc(C)c1Cn1cc(N2C(=O)CN(Cc3cccc(O[C@@H]4O[C@H](C(=O)O)[C@@H](O)[C@H](O)[C@H]4O)c3)C2=O)cn1 | – | rat Sprague-Dawley male, plasma | oral, 10 mg/kg of parent drug | 2540 ng/mL |
